Assay results gathered from unrelated publications.
Each line is one published result; not all experiments were run side by side. “And” joins repeats or separate records; there may be more than shown. ± gives the spread as reported.
MAPKAPK5: MAP kinase-activated protein kinase 5 (MAPKAPK5, Homo sapiens, UniProt Q8IW41)
DDR2: Discoidin domain-containing receptor 2 (DDR2, Homo sapiens, UniProt Q16832)
fdhA: fdhA (Pseudomonas putida, UniProt P46154)

Compound = OC[C@H]1OC(O)[C@H](O)[C@@H](O)[C@@H]1O (some centres unmarked); target = uncharacterized protein (Paenibacillus xylanivorans, UniProt A0A0N0C5Q2); assay = enzyme activity, product inhibitor; setting = 900000 µM, pH 4.5, 40 °C; remaining activity = > 50%
Compound = CNc1ncc2c(/C=C/C(=O)N3CCC(OC)CC3)nn(Cc3cccc(C(F)(F)F)c3)c2n1; target = MAPKAPK5; assay = kinase activity, inhibitor; setting = 1 µM; scale = relative to: untreated control; remaining activity = 121%
Compound = c1cnc2ccc(Nc3nc(NC4CC4)c4nc[nH]c4n3)cc2c1; target = DDR2; assay = kinase activity, inhibitor, SelectScreen kinase profiling; setting = 1 µM; scale = relative to: control; remaining activity = 90%
Compound = COc1cc(N2CCN(C)CC2)ccc1Nc1nc(N)n(C(=S)NCc2c(Cl)cccc2Cl)n1; target = MAPKAPK5; assay = enzyme activity; setting = 10 µM; scale = relative to: control; remaining activity = 16%
Compound = NC/C(=C\F)COc1cccc(Cn2c(=S)[nH]c(=O)c3[nH]cnc32)c1; target = AOC3 (Homo sapiens, UniProt Q16853); assay = dilution jump; setting = concentration not given; scale = relative to: DMSO control; remaining activity = 7.9% and 11.2% and 17.5%
Compound = O=C1NC(=O)/C(=C/c2ccc(-c3ccc(F)cc3O)o2)S1; target = EEF2K (Homo sapiens, UniProt O00418); assay = enzyme activity; setting = 10 µM; remaining activity = 91%
Compound = COc1cc(N2CCN(C)CC2)ccc1Nc1nc(N)n(C(=O)NCc2c(Cl)cccc2Cl)n1; target = MINK1 (Homo sapiens, UniProt Q8N4C8); assay = enzyme activity; setting = 10 µM; scale = relative to: control; remaining activity = 22%
Compound = Cc1cc(Nc2cc(N3CCN(C)CC3)nc(Sc3ccc(NC(=O)C4CC4)cc3)n2)[nH]n1; target = DDR2; assay = kinase activity, KinaseProfiler; setting = 0.03 µM, species human; scale = relative to: control; remaining activity = 95%
Compound = CCCN1C(=O)COc2ccc(Nc3ccccc3Br)cc21; target = Beclin 1-associated autophagy-related key regulator, with Beclin 1 (ATG14, Homo sapiens, UniProt Q6ZNE5); assay = NanoBRET; system = HEK293T; setting = 100 µM, 24 h; scale = relative to: DMSO; remaining activity = 72.9 ± 7.2%
Compound = COc1ccc(F)cc1C(=O)NCc1ccc(-c2nn([C@@H](C)C(F)(F)F)c(N)c2C(N)=O)cc1; target = MAP3K20 (Homo sapiens, UniProt Q9NYL2); assay = kinase activity, inhibitor, HotSpot radiometric; setting = 1000 nM, with: ATP at Km; remaining activity = 89.9 ± 2.9%
Compound = Cc1cccc(C)c1C(=O)OCC(=O)[C@H](CCCCN)NC(=O)[C@H](CCCNC(=N)N)NC(=O)OCc1ccccc1; target = Pro-cathepsin H (Ctsh, Mus musculus, UniProt P49935); assay = inhibitor; setting = 1 µM, with: AMC fluorogenic substrate; scale = relative to: untreated; remaining activity = 95%
Compound = O=C(O)c1ccc(C(=O)c2ccccc2C(=O)O)cc1C(=O)O; target = fdhA; setting = concentration not given, no demethylase; remaining activity = > 80%
Compound = O=C(O)c1ccc(Nc2ncc3c(n2)-c2ccc(Cl)cc2C(c2c(F)cccc2F)=NC3)cc1; target = NEK2(h); assay = kinase activity; setting = 1 µM; remaining activity = 110%
Compound = C/C(CC(O)(C(F)(F)F)C(F)(F)F)=N/Nc1ccc([N+](=O)[O-])cc1[N+](=O)[O-]; target = fdhA; setting = concentration not given, no demethylase; remaining activity = > 80%
Compound = COc1cc(F)ccc1-c1ncnc(Nc2cccc(C[S@](C)(=N)=O)c2)n1; target = ROCK2 (Homo sapiens, UniProt O75116); assay = kinase activity; setting = 10 µM, with: 10 µM ATP; remaining activity = 88%
Compound = COc1cc(Nc2ncc3c(n2)-c2ccc(Cl)cc2C(c2c(F)cccc2OC)=NC3)ccc1C(=O)O; target = FES; assay = kinase activity; setting = 1 µM; remaining activity = 87%
Compound = O=C(NC1CCC1)c1ccc2nc(-c3cccc(NS(=O)(=O)NCCN4CCCCC4)c3)cn2c1; target = PRKCI (Homo sapiens, UniProt P41743); assay = enzyme activity; setting = 10 µM; remaining activity = 100%
Compound = COc1cc(-c2cncc3c2CN(C)Cc2cc(N4CCNCC4)ccc2-3)cc(OC)c1OC; target = Tribbles homolog 2 (TRIB2, Homo sapiens, UniProt Q92519); assay = kinase activity; setting = 1 µM, human enzyme, with: ATP 10 µM; scale = relative to: DMSO control; remaining activity = 108%
Compound = C=CC(=O)N1CCC[C@@H](n2nc(-c3ccc(Oc4ccccc4)cc3)c3c(N)ncnc32)C1; target = TYK2 (Homo sapiens, UniProt P29597); setting = 1 µM; remaining activity = 45.1%
Compound = NC(=O)c1ncn([C@@H]2O[C@H](CO[P@@](=O)(O)O[P@](=O)(O)OP(=O)(O)O)[C@@H](O)[C@H]2O)n1; target = Non-structural polyprotein pORF1, helicase domain (Hepatitis E virus genotype 1, UniProt P33424); assay = ATPase activity, inhibitor, colorimetric; setting = 3.5 µM; scale = relative to: untreated; remaining activity = 77.7%

For quick reference, copied from above:
Compound = CNc1ncc2c(/C=C/C(=O)N3CCC(OC)CC3)nn(Cc3cccc(C(F)(F)F)c3)c2n1; target = MAPKAPK5; assay = kinase activity, inhibitor; setting = 1 µM; scale = relative to: untreated control; remaining activity = 121%
Compound = c1cnc2ccc(Nc3nc(NC4CC4)c4nc[nH]c4n3)cc2c1; target = DDR2; assay = kinase activity, inhibitor, SelectScreen kinase profiling; setting = 1 µM; scale = relative to: control; remaining activity = 90%
